Measurements of several laboratories.
Protocols differ between the studies behind these lines. ± marks the error that the study gave. Converted amounts (≈) assume the structure as drawn.

| Compound | target | assay | system | conditions | how to read | endpoint | result |
| --- | --- | --- | --- | --- | --- | --- | --- |
| NC(=O)C1CCNC(=O)C(CCCNC(=O)c2cnccn2)NC(=O)C(CC2CCCCC2)NC(=O)C(CC=Cc2ccccc2)NC(=O)C=CC(=O)N1 (centres unmarked) | AMPK | binding, DNA-templated library selection | – | one selection round | – | enrichment factor | 0.88 |
| Cc1c(-c2cccc(C3=NCCN3)c2)oc(-c2cccc(C3=NCCN3)c2)c1C | HSP90A promoter G-quadruplex DNA | G-quadruplex stabilisation, FRET melting | – | 1 µM | – | ΔTm | 27.7 °C |
| C=C1CN(S(=O)(=O)c2ccc(C)cc2)CCCN(Cc2ccccc2)CCCN(S(=O)(=O)c2ccc(C)cc2)C1 | huCD4-PL chimera | cell-free translation | reticulocyte lysate, microsomes | 15 µM and higher | – | translocation | inhibited |
| CCOc1ccc(-c2nc3cc(-c4nc5cc(N6CCN(C)CC6)ccc5[nH]4)ccc3[nH]2)cc1 | HIV-1 nucleocapsid protein-RNA NC•SL4 complex | ESI-FTMS | – | 0.35 to 17.5 µM, added to preformed complex | – | NC-RNA complex dissociation | no effect |
| CN1CCCNC(=O)CC2(CCCCC2)CC(=O)NCCCN(C)CCCNc2cccc3c2C(=O)c2cccc(c2C3=O)NCCC1 | telomeric G-quadruplex DNA | circular dichroism | – | 4.5 µM, 100 mM K+ | – | melting temperature increase | 2.8 °C |
| CCOc1c(C(C)(C)O)sc2cnc(Nc3ccc(N4CCC(N5CC6(COC6)C5)CC4)cc3OC)nc12 | CaMKII, mouse | Western blot, measured: phospho-Thr287 CaMKII over total | C57BL/6J mouse, TAC heart failure, heart | oral, 30 mg/kg once daily, 7 days | relative to: vehicle | CaMKII autophosphorylation | decreased |
| Nc1ccc(C2CC2)cc1 | HBV core protein Cp149 dimer | solution NMR | – | 4 molar equivalents, pH 7.5, 295 K, average over eight residues | relative to: apo Cp149 dimer | average chemical shift perturbation | < 0.029 ppm |
| C[C@H](N)C(=O)N[C@@H](C)C(=O)O | PepTSt Streptococcus thermophilus | competition uptake in proteoliposomes | – | – | relative to: compound over tri-alanine | affinity ratio | ~10 fold |
| COC(=O)CCc1ccc(N)cc1 | HBV core protein Cp149 dimer | solution NMR | – | 4 molar equivalents, pH 7.5, 295 K, average over eight residues | relative to: apo Cp149 dimer | average chemical shift perturbation | < 0.029 ppm |
| Cc1cc(/C=C/c2ccc(O)c(O)c2)[nH]n1 | glutathione reductase | enzyme activity | MCF7 | 25 µM, 48 h | – | increase | 52% |
| CCCCC(=O)N(C)c1ccc(O)cc1 | HBV core protein Cp149 dimer | solution NMR | – | 4 molar equivalents, pH 7.5, 295 K, average over eight residues | relative to: apo Cp149 dimer | average chemical shift perturbation | < 0.029 ppm |
| O=C(Cc1ccc2ccccc2c1)N[C@H](Cc1ccccc1)C(=O)N[C@H](Cc1ccccc1)C(=O)N[C@H](Cc1ccc(OP(=O)(O)O)cc1)C(=O)N[C@H](Cc1ccc(OP(=O)(O)O)cc1)C(=O)O | alkaline phosphatase | substrate | – | 0.5 wt %, together with: ALP 0.02 U/mL | – | time to near-complete dephosphorylation | ≤ 24 h |
| Cc1ccc(O)c2c3c(nn12)CCC(C)(NC(=O)c1ccc(-n2cnc4cc(C(=O)O)ccc42)cc1Cl)C3 (centres unmarked) | factor IXa rat | arteriovenous shunt | rat | for clot weight below 50 mg | – | enzyme occupancy | > 65% |
| CC(=O)[C@@]1(O)CC[C@H]2[C@@H]3CCC4=CC(=O)CC[C@]4(C)[C@H]3CC[C@@]21C | GPR126 N terminus to ECL2 | conformational change | – | – | – | BRET signal | increased |
| Cc1sc2ncn(CC(=O)N3CCCC3)c(=O)c2c1-c1ccc(Cl)cc1 | AMPA receptor | receptor response | – | 100 µM | relative to: control | response | 88 ± 6.4% |
| COc1ccc(OC)c(/C=C/C(=O)c2ccc3c(c2)OCO3)c1 | ABCG2 | cell growth, chemosensitizer, MTT | HEK293 transfected with ABCG2 | 1 µM, 72 h | – | GI50 of mitoxantrone | 26.7 ± 11.4 nM |
| [Cl][Pd-2]1([Cl])[N+](=P(c2ccccc2)(c2ccccc2)[c-]2cccc2)Cc2cccc[n+]21.[Cl][Pd-2]1([Cl])[N+](=P(c2ccccc2)(c2ccccc2)[c-]2cccc2)Cc2cccc[n+]21.[Fe+2] | plasmid DNA pBR322 | electrophoretic mobility shift | – | 20 h, 37 °C | – | metal/DNA ratio at coalescence | 0.25 |
| COc1cc(CCC(C)=O)ccc1O | mouse mAb 1-D6 | antibody binding, indirect competitive ELISA | – | together with: coating antigen 1-OVA | – | IC50 | 0.165 µg/mL (≈ 0.85 µM) |
| CCCCCCCCCCCCCCCC(=O)N[C@@H](CCC(=O)NCCCC[C@H](NC(=O)[C@H](CC(=O)O)NC(=O)[C@H](CO)NC(=O)[C@@H](NC(=O)[C@H](Cc1ccccc1)NC(=O)[C@@H](NC(=O)CNC(=O)[C@H](CCC(N)=O)NC(=O)[C@H](CO)NC(=O)[C@@H](N)Cc1c[nH]cn1)[C@@H](C)O)[C@@H](C)O)C(=O)N[C@@H](CO)C(=O)N[C@@H](CCC(=O)O)C(=O)N[C@@H](Cc1ccc(O)cc1)C(=O)N[C@@H](CC(C)C)C(=O)N[C@@H](CC(=O)O)C(=O)N[C@@H](CO)C(=O)N[C@@H](CCC(=O)O)C(=O)N[C@@H](CCCNC(=N)N)C(=O)N[C@@H](C)C(=O)N[C@@H](CCCNC(=N)N)C(=O)N[C@@H](CC(=O)O)C(=O)N[C@@H](Cc1ccccc1)C(=O)N[C@H](C(=O)N[C@@H](C)C(=O)N[C@@H](Cc1c[nH]c2ccccc12)C(=O)N[C@@H](CC(C)C)C(=O)N[C@@H](CCC(=O)O)C(=O)N[C@@H](C)C(=O)NCC(=O)NCC(=O)O)C(C)C)C(=O)O | cynomolgus monkey GLP-1 receptor | cAMP accumulation, agonist | CHO cells | together with: 4.2% monkey albumin | – | EC50 | 0.0052 ± 0.00078 nM |
| NC(=O)C1CCNC(=O)C(CCCNC(=O)c2cnccn2)NC(=O)C(CC2CCCCC2)NC(=O)C(CC2CC2)NC(=O)C=CC(=O)N1 (centres unmarked) | AMPK | binding, DNA-templated library selection | – | one selection round | – | enrichment factor | 1.2 |
| O=C(Nc1ccc(S(=O)(=O)Nc2nccs2)cc1)c1cc(-c2ccccc2)nc2ccccc12 | ChREBP human | reporter gene, inhibitor, LPK promoter luciferase | HepG2 | 3 µM, together with: high glucose | – | inhibition | ~30% |
| CN1CCCNC(=O)c2cccc(c2)C(=O)NCCCN(C)CCCNc2cccc3c2C(=O)c2cccc(c2C3=O)NCCC1 | telomeric G-quadruplex DNA | circular dichroism | – | 4.5 µM, 100 mM K+ | – | melting temperature increase | 8.8 °C |
| CC(=O)c1cnc(N)nc1N1CC[C@H]1c1nn2ccc(Cl)c2c(=O)n1-c1ccccc1 | PI3K beta | KiNativ | dog white blood cell lysate | 1 µM | – | binding | 78% |
| CCCCC/C=C/C(=O)CCc1ccc(O)c(OC)c1 | mAb 5-D8 | antibody binding, indirect competitive ELISA | – | together with: coating antigen hapten 1-OVA | – | IC50 | 0.224 µg/mL (≈ 0.809 µM) |
| CCOC(=O)[C@H](CCCNC(N)=O)NC(=O)[C@H](Cc1c[nH]c2ccccc12)NC(=O)[C@@H]1CCCCN1C(=O)[C@H](Cc1ccccc1)N(C)C(=O)CCl | human Pin1 Cys113 | competitive chemoproteomics | HEK293 lysate | – | relative to: next strongest competing cysteine | selectivity margin | 11 standard deviations |
| OB1c2sccc2C=NN1Cc1ccccc1 | human pancreatic trypsin | enzyme activity, inhibitor | – | 100 µM | – | inhibition | inactive |

Excerpt of the above:
| Compound | target | assay | system | conditions | how to read | endpoint | result |
| --- | --- | --- | --- | --- | --- | --- | --- |
| O=C(Cc1ccc2ccccc2c1)N[C@H](Cc1ccccc1)C(=O)N[C@H](Cc1ccccc1)C(=O)N[C@H](Cc1ccc(OP(=O)(O)O)cc1)C(=O)N[C@H](Cc1ccc(OP(=O)(O)O)cc1)C(=O)O | alkaline phosphatase | substrate | – | 0.5 wt %, together with: ALP 0.02 U/mL | – | time to near-complete dephosphorylation | ≤ 24 h |
| Cc1cc(/C=C/c2ccc(O)c(O)c2)[nH]n1 | glutathione reductase | enzyme activity | MCF7 | 25 µM, 48 h | – | increase | 52% |
| COC(=O)CCc1ccc(N)cc1 | HBV core protein Cp149 dimer | solution NMR | – | 4 molar equivalents, pH 7.5, 295 K, average over eight residues | relative to: apo Cp149 dimer | average chemical shift perturbation | < 0.029 ppm |
| CCOc1c(C(C)(C)O)sc2cnc(Nc3ccc(N4CCC(N5CC6(COC6)C5)CC4)cc3OC)nc12 | CaMKII, mouse | Western blot, measured: phospho-Thr287 CaMKII over total | C57BL/6J mouse, TAC heart failure, heart | oral, 30 mg/kg once daily, 7 days | relative to: vehicle | CaMKII autophosphorylation | decreased |
